Literature values as cited in several papers.
Lines come from different studies, so protocols differ. ± marks the error that the study gave.
Chain of UniProt Q9UM73 (whole entry, unmodified, looked up): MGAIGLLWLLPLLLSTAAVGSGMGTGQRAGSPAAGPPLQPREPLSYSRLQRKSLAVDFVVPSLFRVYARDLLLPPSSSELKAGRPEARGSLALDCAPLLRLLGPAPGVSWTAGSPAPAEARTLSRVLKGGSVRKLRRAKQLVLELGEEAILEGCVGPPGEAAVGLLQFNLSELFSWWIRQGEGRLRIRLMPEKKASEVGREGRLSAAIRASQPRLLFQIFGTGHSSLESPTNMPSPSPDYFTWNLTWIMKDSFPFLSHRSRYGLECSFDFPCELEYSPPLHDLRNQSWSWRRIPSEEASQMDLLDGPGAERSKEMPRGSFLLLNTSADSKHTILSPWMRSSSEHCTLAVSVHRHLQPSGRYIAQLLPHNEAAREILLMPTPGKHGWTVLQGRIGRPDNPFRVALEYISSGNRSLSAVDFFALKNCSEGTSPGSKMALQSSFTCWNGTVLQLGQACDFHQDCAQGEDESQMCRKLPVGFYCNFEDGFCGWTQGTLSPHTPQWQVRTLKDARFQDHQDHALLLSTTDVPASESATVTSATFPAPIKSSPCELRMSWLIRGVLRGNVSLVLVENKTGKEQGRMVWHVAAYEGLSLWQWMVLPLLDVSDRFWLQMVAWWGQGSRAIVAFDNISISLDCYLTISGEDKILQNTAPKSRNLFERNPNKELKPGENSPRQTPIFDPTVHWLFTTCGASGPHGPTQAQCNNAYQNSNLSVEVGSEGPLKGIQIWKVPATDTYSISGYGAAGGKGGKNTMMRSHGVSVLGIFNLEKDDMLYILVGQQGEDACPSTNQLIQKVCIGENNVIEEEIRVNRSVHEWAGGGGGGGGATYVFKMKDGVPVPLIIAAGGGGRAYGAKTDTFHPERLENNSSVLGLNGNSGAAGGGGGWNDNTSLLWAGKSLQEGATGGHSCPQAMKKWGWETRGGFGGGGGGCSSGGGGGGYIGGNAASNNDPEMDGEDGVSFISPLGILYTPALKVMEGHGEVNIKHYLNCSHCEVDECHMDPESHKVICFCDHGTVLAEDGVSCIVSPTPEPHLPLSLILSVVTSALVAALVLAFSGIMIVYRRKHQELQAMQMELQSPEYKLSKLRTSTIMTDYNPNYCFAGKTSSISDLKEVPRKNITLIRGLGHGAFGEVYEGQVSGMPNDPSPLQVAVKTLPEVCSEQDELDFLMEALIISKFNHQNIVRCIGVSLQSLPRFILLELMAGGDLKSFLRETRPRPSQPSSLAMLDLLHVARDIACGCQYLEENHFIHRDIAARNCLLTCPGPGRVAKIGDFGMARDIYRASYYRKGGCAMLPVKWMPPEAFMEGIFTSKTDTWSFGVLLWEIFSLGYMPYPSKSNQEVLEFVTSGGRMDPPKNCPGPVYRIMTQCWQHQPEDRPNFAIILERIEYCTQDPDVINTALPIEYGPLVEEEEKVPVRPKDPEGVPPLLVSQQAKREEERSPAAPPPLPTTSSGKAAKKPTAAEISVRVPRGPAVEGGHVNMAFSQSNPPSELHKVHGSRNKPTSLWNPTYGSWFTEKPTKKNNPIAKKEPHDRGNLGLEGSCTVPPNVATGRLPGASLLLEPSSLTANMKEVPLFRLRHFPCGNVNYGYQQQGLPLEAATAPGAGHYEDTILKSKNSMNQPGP

SMILES	target or system	assay	test system	setting	scale	measurement	result
COC(=O)C1=C(C)NC(C)=C(C(=O)OC)C1c1c(-c2c(OC)ccc(OC)c2[N+](=O)[O-])nc2sccn12	–	calcium-induced contraction, relaxant	guinea pig ileum longitudinal muscle	–	–	IC50	11000 nM
CC(=O)O[C@@]12CO[C@@H]1C[C@H](O)[C@@]1(C)C(=O)[C@H](O)C3=C(C)[C@@H](OC(=O)[C@H](O)[C@@H](NC(=O)OC(C)(C)C)c4ccccc4)C[C@@](O)([C@@H](OC(=O)c4ccccc4)[C@H]21)C3(C)C	–	–	human, gastric or gastro-oesophageal junction adenocarcinoma	dose not given, trial	–	progression-free survival	2.7 months
N#Cc1ccc(CN2CCC(Oc3ccc(NC(=O)c4cccs4)cc3Cl)CC2)cc1	Plasmodium falciparum	whole cell extended time	3D7	72 h	–	IC50	580 nM
COC(=O)C1=C(C)NC(C)=C(C(=O)OC)C1c1c(C)nc2sc(C)cn12	–	negative inotropic effect	guinea pig left atrium	5×100 nM	–	decrease in contractile force	43 ± 3.3%
Nc1cc(C(F)(F)F)c(-c2cc(N3CCOCC3)nc(N3CCOCC3)n2)cn1	–	–	advanced solid tumour patients	12.5 and 150 mg, daily dosing, sample B patients	–	disease control rate	41%
O=C(c1ccc(Cl)cc1)N(Cc1ccccc1)C1CCCCC1	–	–	mouse, LPS-induced ALI	dose not given, with: intratracheal LPS	–	RAGE expression	decreased
Cc1cc(=O)c(-c2ccc(Oc3ccc(C(F)(F)F)cc3)cc2)c(C)n1O	Plasmodium falciparum	whole cell extended time	3D7	72 h	–	IC50	600 nM
Nc1cccc2c1C(=O)N(C1CCC(=O)NC1=O)C2=O (stereo not drawn)	–	–	relapsed refractory multiple myeloma patients	dose not given, phase II, sample A patients, with: low-dose dexamethasone	–	overall response rate	33%
CNC(C)C1CCC(N)C(OC2C(N)CC(N)C(OC3OCC(C)(O)C(NC)C3O)C2O)O1 (stereo not drawn)	Pseudomonas aeruginosa	–	clinical isolate RKI-No_347/12	–	–	MIC	> 8 µg/mL
O=C(O)c1ccc(O)c(O)c1	–	anti-inflammatory effect	mouse LPS/D-galactosamine sepsis	intraperitoneal	–	effective dose	50 mg/kg
CC1(C)S[C@@H]2[C@H](NC(=O)[C@H](N)c3ccccc3)C(=O)N2[C@H]1C(=O)O	Pseudomonas aeruginosa	–	clinical isolate RKI-No_21/12	–	–	MIC	> 16 µg/mL
O=C1CCC(N2C(=O)c3ccccc3C2=O)C(=O)N1 (stereo not drawn)	–	TNF release	human whole blood	with: LPS	–	IC50	~194000 nM
Cc1cc(C)c(CNC(=O)c2cc(Cl)c3c(c2C)O[C@@](C)([C@H]2CC[C@H](N(C)C)CC2)O3)c(=O)[nH]1	–	–	relapsed/refractory PTCL patients	dose not given	–	median time to response	8.14 weeks
F[P-](F)(F)(F)(F)F.F[P-](F)(F)(F)(F)F.[Ru+2].c1ccc(-c2ccccn2)nc1.c1ccc(-c2ccccn2)nc1.c1ccc(-c2ccccn2)nc1	–	–	acetonitrile	–	–	singlet oxygen quantum yield	0.56
COc1ccc(Cl)c(Nc2nc3ccccc3nc2NS(=O)(=O)c2cccc(NC(=O)C(C)(C)N)c2)c1	–	–	human endometrial cancer patients	dose not given, phase II trial	–	objective response rate	6%
C=CC(=O)Nc1cc(Nc2nccc(-c3cn(C)c4ccccc34)n2)c(OC)cc1N(C)CCN(C)C	–	–	human, NSCLC patients	80 mg	–	objective response rate	5%
CCCCCCCCC/C(=C\C1=C(C)C(=O)C(OC)=C(OC)C1=O)C(=O)O	–	–	mouse laser-induced CNV model	oral, dose not given	–	lesion volume reduction	50%
Nc1cc(C(F)(F)F)c(-c2nc(N3CCOCC3)nc(N3CCOCC3)n2)cn1	ALK (Homo sapiens, UniProt Q9UM73, C1156Y)	enzyme activity	–	10 µM	reference: untreated	remaining activity	95%
CCN(c1cc(-c2ccc(CN3CCOCC3)cc2)cc(C(=O)NCc2c(C)cc(C)[nH]c2=O)c1C)C1CCOCC1	–	–	relapsed/refractory DLBCL, EZH2 mutant	dose not given	–	overall response rate	29%
CN(C)C(=O)c1cc2cnc(Nc3ccc(N4CCNCC4)cn3)nc2n1C1CCCC1	–	–	human recurrent glioblastoma	600 mg/day	–	progression-free survival	9.7 weeks
COC(=O)C1=C(C)NC(C)=C(C(=O)OC)C1c1c(C)nc2sc(Cl)cn12	–	negative inotropic effect	guinea pig, isolated left atrium	–	–	EC50	130 nM
O=c1[nH]cc(F)c(=O)[nH]1	–	–	metastatic pancreatic cancer patients	dose not given	–	overall tumour response rate	0%
COc1cc(N2CCC3(CCN(C)CC3)CC2)ccc1Nc1ncc(Cl)c(Nc2ccccc2P(C)(C)=O)n1	–	–	ALK TKI-naive ALK-positive NSCLC patients	dose not given, measurable CNS metastases at baseline	–	intracranial objective response rate	90.9%

SMILES	target or system	assay	test system	setting	scale	measurement	result
COC(=O)C1=C(C)NC(C)=C(C(=O)OC)C1c1c(Cl)nc2sc(C)c(C)n12	–	negative inotropic effect	guinea pig, isolated left atrium	–	–	EC50	81 nM
Cc1cc(-c2nccc3c2ccn3CC(=O)Nc2ccc(-c3cnccn3)cn2)ccn1	–	–	mouse, bleomycin-induced pulmonary fibrosis	oral, 25 mg/kg once daily, days 7-21	–	Ashcroft score	decreased
C[C@@H](NC(=O)N1C(=O)[C@H](Cc2ccnc(N)c2)[C@H]1C(=O)O)C1CCCCC1	–	–	human	intravenous infusion, 0.6 mg/kg/h, 5 days	reference: baseline	aPTT ratio	~1.7
Cn1cncc1[C@@](N)(c1ccc(Cl)cc1)c1ccc2c(c1)c(-c1cccc(Cl)c1)cc(=O)n2C	–	–	human, newly diagnosed untreated JMML	dose not given, complete plus partial response	–	response rate	58%
COc1ccc(CC(C)NCC(O)c2ccc(O)c(NC=O)c2)cc1 (stereo not drawn)	–	–	COPD patients	inhaled, 12 µg single, 12 h post-dose	reference: placebo	trough FEV1 change from baseline	45 mL
CCN1[C@@H](C(=O)NC23CCC(C(=O)O)(CC2)CC3)[C@H](c2cccc(Cl)c2F)[C@]2(C(=O)Nc3cc(Cl)ccc32)C12CCCCC2	–	–	mouse	dose not given	–	M2 macrophage population	decreased
CCOc1cc(C(C)(C)C)ccc1C1=N[C@@](C)(c2ccc(Cl)cc2)[C@@](C)(c2ccc(Cl)cc2)N1C(=O)N1CCN(CCCS(C)(=O)=O)CC1	–	–	relapsed/refractory AML patients	dose not given, phase I trial	–	response rate	~25%
OCc1cc(C(O)CNCCCCCCOCCCCc2ccccc2)ccc1O (stereo not drawn)	–	–	COPD patients	inhaled, 75 µg single, 12 h post-dose	reference: placebo	trough FEV1 change from baseline	117 mL
C[C@H]1COCCN1c1nc(-c2cnc(N)cc2C(F)F)nc(N2CCOCC2)n1	MeWo	–	–	–	–	GI50	329 nM
COC(=O)C1=C(C)NC(C)=C(C(=O)OC)C1c1c(-c2cccc(OC)c2)nc2sccn12	–	–	guinea pig right atrium	5 µM, spontaneously beating	reference: control	decrease in atrial rate	94 ± 2%
CC(C)(C)NCC(O)c1ccc(O)c(CO)c1 (stereo not drawn)	–	–	COPD patients	inhaled, 400 µg single, 6 h post-dose	reference: placebo	trough FEV1 change from baseline	0 mL
C[C@@]12C[C@@]3(O)O[C@@H](O1)[C@]1(COC(=O)c4ccccc4)[C@H]3C[C@@]12O[C@@H]1O[C@H](CO)[C@@H](O)[C@H](O)[C@H]1O	–	ADP-induced platelet aggregation, inhibitor	rabbit blood	–	–	effective dose	36 mmol/L
CC(=O)O[C@H]1C(=O)[C@@]2(C)[C@H]([C@H](OC(=O)c3ccccc3)[C@]3(O)C[C@H](OC(=O)[C@H](O)[C@@H](NC(=O)c4ccccc4)c4ccccc4)C(C)=C1C3(C)C)[C@]1(OC(C)=O)CO[C@@H]1C[C@@H]2O	–	–	advanced urothelial cancer patients	80 mg/m2 weekly, monotherapy	–	median time to progression	2.2 months
COC(=O)C1=C(C)NC(C)=C(C(=O)OC)C1c1c(-c2ccccc2OC)nc2sccn12	–	negative inotropic effect	guinea pig, isolated left atrium	–	–	EC50	1970 nM
CC(=O)Oc1cc2c(s1)CCN(C(C(=O)C1CC1)c1ccccc1F)C2 (stereo not drawn)	–	VerifyNow P2Y12	STEMI patients	60 mg loading dose, 2 h	–	high residual platelet reactivity	44%
N=C(N)NCCC[C@H](NC(=O)[C@H](CCCNC(=N)N)NC(=O)[C@H](CCCCN)NC(=O)[C@H](CCC(N)=O)NC(=O)[C@H](CCCCN)NC(=O)[C@H](Cc1ccc(O)cc1)NC(=O)[C@@H](N)CCCCN)C(=O)N[C@@H](CO)C(=O)N[C@@H](Cc1ccc(O)cc1)C(=O)N[C@@H](CCCCN)C(=O)O	–	–	beagle dog tooth defect model	–	–	lowest dose dentin formation	2.5 µg/tooth
COC(=O)C1=C(C)NC(C)=C(C(=O)OC)C1c1c(-c2cc(OC)c(OC)cc2[N+](=O)[O-])nc2sccn12	–	–	guinea pig right atrium	5x1.000e-05 M	–	decrease in heart rate	90 ± 0.8%
C=CC(=O)Nc1cc(Nc2nccc(Nc3cc(Cl)c(F)cc3C(C)(C)O)n2)c(OC)cc1N1CC[C@@H](N(C)C)C1	–	phase 2 trial	human, NSCLC with brain metastases	dose not given	–	objective response rate	48.4%
COC(=O)C1=C(C)NC(C)=C(C(=O)OC)C1c1c(-c2cc(OC)ccc2OC)nc2sc(C)cn12	–	negative inotropic effect	guinea pig, isolated left atrium	–	–	EC50	1430 nM
CC(C)C[C@H](NC(=O)[C@H](CC(C)C)NC(=O)[C@H](Cc1c[nH]c2ccccc12)NC(=O)[C@H](CCC(=O)O)NC(=O)[C@@H](NC(=O)[C@H](Cc1ccccc1)NC(=O)[C@H](CCC(=O)O)NC(=O)[C@H](CCCCNC(=O)COCCOCCNC(=O)COCCOCCNC(=O)CC[C@H](NC(=O)CCCCCCCCCCCCCCCCCCC(=O)O)C(=O)O)NC(=O)[C@H](C)NC(=O)[C@H](CCCCN)NC(=O)[C@H](CCCCN)NC(=O)[C@H](CCC(=O)O)NC(=O)[C@H](CC(=O)O)NC(=O)[C@H](CC(C)C)NC(=O)[C@H](Cc1ccc(O)cc1)NC(=O)[C@H](CCCCN)NC(=O)[C@H](CO)NC(=O)[C@H](Cc1ccc(O)cc1)NC(=O)[C@H](CC(=O)O)NC(=O)[C@H](CO)NC(=O)[C@@H](NC(=O)[C@H](Cc1ccccc1)NC(=O)[C@@H](NC(=O)CNC(=O)[C@H](CCC(N)=O)NC(=O)C(C)(C)NC(=O)[C@@H](N)Cc1c[nH]cn1)[C@@H](C)O)[C@@H](C)O)C(C)C)C(=O)N[C@@H](CCC(=O)O)C(=O)NCC(=O)NCC(=O)N1CCC[C@H]1C(=O)N[C@@H](CO)C(=O)N[C@@H](CO)C(=O)NCC(N)=O	–	–	human obesity or overweight	6 mg, 24 weeks, trial	–	body weight loss	11%
CCCCC1(O)OC(=O)C2=C1CCC=C2 (stereo not drawn)	–	ADP-induced platelet aggregation, inhibitor	rabbit blood	–	–	effective dose	5 mmol/L
Nc1ccn([C@@H]2O[C@H](CO)[C@@H](O)C2(F)F)c(=O)n1	–	–	human pancreatic cancer, mouse xenograft	dose not given	–	tumour regression rate	36%

Repeated from above:
SMILES	target or system	assay	test system	setting	scale	measurement	result
COC(=O)C1=C(C)NC(C)=C(C(=O)OC)C1c1c(-c2ccccc2OC)nc2sccn12	–	negative inotropic effect	guinea pig, isolated left atrium	–	–	EC50	1970 nM
CC(=O)Oc1cc2c(s1)CCN(C(C(=O)C1CC1)c1ccccc1F)C2 (stereo not drawn)	–	VerifyNow P2Y12	STEMI patients	60 mg loading dose, 2 h	–	high residual platelet reactivity	44%
